Results gathered from unrelated publications.
Numbered parts are unrelated; each lists some results of a single study. Positions count from the first letter of the parent shown.
Sequence of UniProt P16591 (whole entry, looked up): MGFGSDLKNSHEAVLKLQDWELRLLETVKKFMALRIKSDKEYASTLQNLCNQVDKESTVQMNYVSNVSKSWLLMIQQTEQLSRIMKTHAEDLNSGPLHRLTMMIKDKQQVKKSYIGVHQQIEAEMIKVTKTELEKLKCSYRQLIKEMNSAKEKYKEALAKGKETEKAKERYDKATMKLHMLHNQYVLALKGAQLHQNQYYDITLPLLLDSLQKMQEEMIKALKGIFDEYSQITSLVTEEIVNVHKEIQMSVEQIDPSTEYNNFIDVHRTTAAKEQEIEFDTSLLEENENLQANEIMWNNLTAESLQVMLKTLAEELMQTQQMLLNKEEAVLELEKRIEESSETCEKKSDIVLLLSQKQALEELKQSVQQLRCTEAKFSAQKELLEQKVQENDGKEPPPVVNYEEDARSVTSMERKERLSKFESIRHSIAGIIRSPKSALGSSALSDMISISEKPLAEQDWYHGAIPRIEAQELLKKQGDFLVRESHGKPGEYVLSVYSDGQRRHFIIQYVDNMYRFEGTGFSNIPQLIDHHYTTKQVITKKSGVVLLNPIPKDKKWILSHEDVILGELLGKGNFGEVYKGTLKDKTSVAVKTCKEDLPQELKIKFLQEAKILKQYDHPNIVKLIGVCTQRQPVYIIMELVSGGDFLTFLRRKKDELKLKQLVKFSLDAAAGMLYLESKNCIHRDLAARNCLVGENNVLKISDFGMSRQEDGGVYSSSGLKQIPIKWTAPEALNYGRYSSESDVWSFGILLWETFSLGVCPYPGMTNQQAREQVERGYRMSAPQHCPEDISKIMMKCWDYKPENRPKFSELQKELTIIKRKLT
Sequence of UniProt Q8NFD2 (whole entry, looked up): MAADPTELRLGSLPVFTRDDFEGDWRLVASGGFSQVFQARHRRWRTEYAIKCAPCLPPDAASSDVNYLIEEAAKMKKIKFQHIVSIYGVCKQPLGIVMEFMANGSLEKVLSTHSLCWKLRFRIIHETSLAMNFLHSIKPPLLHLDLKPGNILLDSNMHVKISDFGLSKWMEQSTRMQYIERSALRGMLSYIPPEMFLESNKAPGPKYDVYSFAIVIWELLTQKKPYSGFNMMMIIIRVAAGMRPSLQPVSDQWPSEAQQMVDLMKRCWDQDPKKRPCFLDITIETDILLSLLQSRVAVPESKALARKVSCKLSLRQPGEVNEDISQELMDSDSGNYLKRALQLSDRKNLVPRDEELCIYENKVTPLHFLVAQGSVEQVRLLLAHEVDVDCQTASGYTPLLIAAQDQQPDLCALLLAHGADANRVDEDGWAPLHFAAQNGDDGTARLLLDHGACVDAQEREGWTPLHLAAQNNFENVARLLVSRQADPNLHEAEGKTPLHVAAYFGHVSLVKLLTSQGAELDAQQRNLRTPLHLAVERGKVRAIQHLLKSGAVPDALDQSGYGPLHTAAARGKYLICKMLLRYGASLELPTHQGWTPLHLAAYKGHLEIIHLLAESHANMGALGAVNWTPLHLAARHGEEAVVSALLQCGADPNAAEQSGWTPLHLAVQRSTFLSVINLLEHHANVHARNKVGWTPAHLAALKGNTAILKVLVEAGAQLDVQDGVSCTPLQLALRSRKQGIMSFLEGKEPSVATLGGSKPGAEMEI
Sequence of UniProt P15735 (whole entry, looked up): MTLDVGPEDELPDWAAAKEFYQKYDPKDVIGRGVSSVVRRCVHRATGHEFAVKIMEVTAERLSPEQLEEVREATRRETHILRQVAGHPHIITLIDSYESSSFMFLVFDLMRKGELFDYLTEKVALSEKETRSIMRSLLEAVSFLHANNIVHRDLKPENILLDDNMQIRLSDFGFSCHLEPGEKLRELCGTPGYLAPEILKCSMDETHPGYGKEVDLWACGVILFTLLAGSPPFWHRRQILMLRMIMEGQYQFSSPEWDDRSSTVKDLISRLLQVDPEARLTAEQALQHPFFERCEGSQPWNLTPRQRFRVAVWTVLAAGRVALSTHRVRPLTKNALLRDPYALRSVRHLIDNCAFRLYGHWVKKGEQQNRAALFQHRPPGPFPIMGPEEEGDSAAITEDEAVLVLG

Sample 1
Compound: CCCOc1ccc([C@@H]2[C@@H](C(=O)O)[C@H](c3ccc4c(c3)OCO4)CN2CC(=O)Nc2c(CC)cccc2CC)cc1
Read-out: cell-free assay
Technique: competition with immobilised ligand
Concentration: 1 µM
target | remaining binding [%]
FER (Homo sapiens, UniProt P16591) | 100
PHKG2 (Homo sapiens, UniProt P15735) | 74
ANKK1 (Homo sapiens, UniProt Q8NFD2) | 73

Sample 2
Target: Interferon regulatory factor 7, full length, phosphomimetic (IRF7, Homo sapiens, UniProt Q92985, residues 1-503, S471D/S472D/S475D/S476D/S477D/S483D/S484D/S487D)
Sequence of UniProt Q92985 (whole entry, unmodified, looked up): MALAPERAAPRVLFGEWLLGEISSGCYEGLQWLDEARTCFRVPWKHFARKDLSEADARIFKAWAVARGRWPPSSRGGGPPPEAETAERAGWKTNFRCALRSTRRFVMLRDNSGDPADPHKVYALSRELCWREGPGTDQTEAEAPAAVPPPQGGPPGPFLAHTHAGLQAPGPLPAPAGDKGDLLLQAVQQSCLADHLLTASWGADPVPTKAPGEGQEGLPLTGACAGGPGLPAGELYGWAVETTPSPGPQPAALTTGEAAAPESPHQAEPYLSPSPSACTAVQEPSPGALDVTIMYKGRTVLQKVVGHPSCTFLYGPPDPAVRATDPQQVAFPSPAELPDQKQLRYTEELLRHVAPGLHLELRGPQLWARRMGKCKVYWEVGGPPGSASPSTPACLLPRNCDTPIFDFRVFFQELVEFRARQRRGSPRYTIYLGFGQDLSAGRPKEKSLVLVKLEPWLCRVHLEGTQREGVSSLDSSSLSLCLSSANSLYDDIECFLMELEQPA
Technique: protein-binding microarray
Form: double-stranded DNA, one strand shown
Matrix: in vitro
Concentration: 2200 nM top
Setting: 60-bp whole probe
With: salmon DNA 0.4 mg/ml
Reference: random background probes
Reading: higher = stronger binding
All sequences stand within: GCCTAGCAC … GTCTTGATTCGCTTGACGCTGCTG
Strand | fitted relative affinity
TTAGGTTTCGGTTCCGGATAGTGCTAG | 11.2 z-score
GACGATTTCGGGTTTCGAAACGTGCTA | 5.21 z-score
TTAGATTTCGGGACTGGATTTGTGCTA | 1.06 z-score
TTAGATTTCGGCTTTCGATTAGTGCTA | 4.98 z-score
TTAGGTTTCCATTCCCTTTAGTGCTAG | 4.55 z-score
TCAACTCTGTTTTCGCTTACTGTGCTA | 4.22 z-score
GGCGAACTGAGACTGGAGACGTGCTAG | -0.571 z-score
GACGGTTTCGACATTCGGGACGTGCTA | 4.39 z-score

Sample 3
Target: FOSL2, bZIP domain (human)
Technique: DHFR protein complementation
Matrix: yeast
Setting: single substitutions, most at no-binding floor
Reference: wild-type JUN-FOS pair
Reading: higher = stronger binding
Starting sequence: JUN, bZIP domain (human); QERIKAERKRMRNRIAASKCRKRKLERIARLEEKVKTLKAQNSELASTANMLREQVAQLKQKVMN; partner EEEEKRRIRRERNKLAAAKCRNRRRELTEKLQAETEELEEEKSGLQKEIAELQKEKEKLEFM
Change | binding fitness [natural log]
Q41A | -0.0121
A57H | 0.054
L38P | -1.13
S47N | 0.11
S47M | 0.0372
E32A | 0.293
E54T | -0.032
A29R | 0.000588

Further values, each from its own experiment
Compound | matrix | endpoint | result
CCOC(=O)[C@@H]1CSCC(=O)N[C@H](CC)C(=O)N(C)[C@@H](C)C(=O)N[C@H](CC(C)C)C(=O)N2CCC[C@H]2C(=O)N(CC)CC(=O)N[C@H](CC(C)C)C(=O)N(C)[C@@H](C)C(=O)N[C@@H](CC(C)C)C(=O)N1C | hydrocarbon/water | logD | 1.22

Some of these lines once more (sample 1):
target | remaining binding [%]
FER (Homo sapiens, UniProt P16591) | 100
PHKG2 (Homo sapiens, UniProt P15735) | 74
